Measured values collected from several papers.
A part holds a random share of what one study measured.

Sample 1 — method: protein binding microarray; molecule type: double-stranded DNA, one strand shown; medium: in vitro; tested at: not given; relative to: not given; direction: higher = stronger binding
Target: Histone acetyltransferase KAT6A, winged helix 2, GST fusion (KAT6A, Homo sapiens, UniProt Q92794, residues 85-181)
Setting: 8-mer, flanks averaged, mean of 2 arrays, mostly near background
Target sequence (chain): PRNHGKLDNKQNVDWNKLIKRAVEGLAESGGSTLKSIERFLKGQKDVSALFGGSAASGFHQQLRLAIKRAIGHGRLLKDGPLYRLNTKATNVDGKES
Oligonucleotide	E-score
AAAGTGGA	0.0129
TGCCATAA	-0.149
AGCAGGTG	0.13
CCGGGAGG	0.142
GGGAGCGA	-0.0572
GCCATAGC	0.0348
CGGGGAGA	0.0299
CTAGTCGA	0.0959
TCCTTAGA	-0.101
CTTCCGCA	0.137
AAAGTGAT	0.026
AATAGTTA	-0.0498
GCACAGTA	0.0535
CGTATCAA	-0.0487
CAAAGATA	0.0558
ACTTTCCG	-0.125
ATGTTCGG	0.0352
ACCGAGAC	-0.111
AGAAGACA	0.00453

Sample 2 — method: RNA Bind-n-Seq; molecule type: RNA; medium: in vitro; tested at: not given; relative to: input RNA pool; direction: higher = stronger binding
Target: RING finger protein unkempt homolog, zinc fingers 1-6, GST-SBP tag (UNK, Homo sapiens, UniProt Q9C0B0, residues 30-357)
Chain of UniProt Q9C0B0 (30-357, looked up): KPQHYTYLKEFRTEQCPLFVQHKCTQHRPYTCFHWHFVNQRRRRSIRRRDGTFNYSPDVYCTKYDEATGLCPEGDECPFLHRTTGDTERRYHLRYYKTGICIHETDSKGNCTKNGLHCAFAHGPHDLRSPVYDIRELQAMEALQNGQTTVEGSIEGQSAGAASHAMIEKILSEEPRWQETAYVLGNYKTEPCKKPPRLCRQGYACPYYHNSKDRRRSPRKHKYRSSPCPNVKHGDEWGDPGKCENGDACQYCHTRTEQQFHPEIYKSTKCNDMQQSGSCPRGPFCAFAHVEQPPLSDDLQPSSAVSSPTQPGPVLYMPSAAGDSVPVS
Setting: RNA with constant flanks, human and mouse sites, ends assumed
Shared flanks, not repeated: GGGAGUUCUACAGUCCGACGAUC … CAACAGAGGAUUGAGCAUCA
Oligonucleotide	bound/input enrichment
GCUUUUAAUGGAGUUAUGUUUGGAGACAGGCCACUGAAAAUAAAUCACUCCAACAAUGCAAUAGUAAAACCUCCUGAGAUGACACCUCAGGCUGCAGCUAAGGAGUUAGAAGAAGUAAUG	1.92 ratio
ACUGUCUGUUAUCUUCCUUGCUUCCCAUCGCUGCCUUUGAUUCUGUAAGAGGGGUUUUUUUUUUUUCUCUUUCCCCAACAAGGGUUUGGAUGAUAUGAGAUUUAUUUAUUUAUUCGCUGA	0.522 ratio
AAUUUUCCUCAUCUUGUAGUCGAAAAAAUUCUUGUAAGUCUCACUAUGAAAAACUCAAAAGCUGCAAUGAAGUUUUUUCAAAGUGUGCCAGAAUGUGAACAACACUGCGAAGAUAAAGAA	0.279 ratio
GGCAGUGUCCACCCCUCUGAUGUGUUGGAUAUGCCUGUGGAUCCCAACGAACCCACCUAUUGCCUUUGUCACCAGGUCUCCUAUGGAGAGAUGAUUGGCUGUGACAACCCUGAUUGUUCC	0.16 ratio
CAUAAGCAUGAUUUGGAUCUUAUAUGUAGAGCCCAUCAGGUGGUUGAAGAUGGCUAUGAGUUUUUUGCAAAGAGGCAGUUAGUCACUCUGUUUUCUGCACCCAACUACUGUGGCGAGUUU	0.144 ratio
CUGAGUGGGGAAGGAAAUGUGACCUUCAAUGGUCACAAAGCAGCUAUCACUACCUUGAAGUAUGAUCAGCUAGGAGGCAGACUGGCAUCUGGGUCCAAGGACACAGAUAUUAUUGUAUGG	0.208 ratio
UAUUUUUAUAACUAUCCAGCAGUGUGUGAAUUUUUGCAAAACAAUAAUUUGUUAUCGAUUAUUAGAGCUCAUGAAGCUCAAGAUGCAGGCUAUAGAAUGUACAGAAAAAGUCAAACUACA	0.428 ratio
ACGUGCUUAAUCCUGGUGCAGGGGGCGAGCAUGGCCGCUCCGCGAGUAUUCCCACUUUCCUGUGCGGUGCAGCAGUAUGCCUGGGGGAAGAUGGGUUCCAACAGCGAAGUGGCGCGGCUG	0.283 ratio

Sample 3 — method: protein-binding microarray; molecule type: double-stranded DNA, one strand shown; medium: in vitro; tested at: 940 nM top; setting: 60-bp whole probe; together with: salmon DNA 0.4 mg/ml; relative to: random background probes; direction: higher = stronger binding; shared flanks, not repeated: GCCTAGCAC … GTCTTGATTCGCTTGACGCTGCTG
Target: Interferon regulatory factor 5, full length, phosphomimetic (IRF5, Homo sapiens, UniProt Q13568-2, residues 1-514, S451D/S453D/S456D/S462D)
Oligonucleotide	fitted relative affinity [z-score]
GACGGTTTCCTTCTCGTGACGTGCTAG	1.91
GACGGACTGCAACTGCTGACGTGCTAG	-0.742
TTTTTTTTGCAAGCTAAAAAAGTGCTA	-0.328
GACGATGCCAGTTTCGAGACGTGCTAG	3.62
GGTGTTTTACAGGTTCTCTTTGTGCTA	0.286
TTAGGACTGCTTCTCCTCTAGTGCTAG	-0.126
TCAGGAGTCAACTCTCTAACTGTGCTA	-0.422
TCAGTTCACTATTTAAGACTGTGCTAG	0.159
TTAGGACTGGGGACTGGGTAAGTGCTA	-0.529
GACGGTCTCCTACTGCTGCCGTGCTAG	-0.277
TTAGGTATCGACTAACGGTTAGTGCTA	6.24
GACGGTTTCATTTTCCTGACGTGCTAG	4.97
TTAGATTTCGGGTTCCGATTAGTGCTA	1.31
TCATACCTCATCTTTCCCACTGTGCTA	1.4
TTAGAACTGAGTATCGAGTAGTGCTAG	1.61
TTCATTTTCTTTAACTCATTGTGCTAG	1.64
AAAATTTTGCTTCTAGAACAGTGCTAG	-0.511
TTAGGTTTCGGGCTGGGTTAGTGCTAG	9

Sample 4 — method: RNA Bind-n-Seq; molecule type: RNA; medium: in vitro; tested at: 365 nM; relative to: no-protein control; direction: higher = stronger binding
Target: RNA binding protein fox-1 homolog 2, RRM domain, GST-SBP tag (RBFOX2, Homo sapiens, UniProt O43251-10, residues 100-194)
Setting: natural RNA segment, single round, ends assumed
Shared flanks, not repeated: GGGAGUUCUACAGUCCGACGAUC … UGGAAUUCUCGGGUGCCAA
Target sequence (chain): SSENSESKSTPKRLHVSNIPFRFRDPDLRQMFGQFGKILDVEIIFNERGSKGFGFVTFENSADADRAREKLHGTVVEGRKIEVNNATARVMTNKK
Oligonucleotide	RBNS enrichment (R)
UGUGUAGCUCUAAGAACAUGAAGUAGCUGGUUGCAAGAUGGACCAACUCACCAAGUGUCAGCCCAGGUAGUGAGAAACUUGCAGUAGACAUGGAGCUGGGCUCUUUUAAA	0.958
AUACCGGUUUAACUACUAGUGUGUUACUGCCUCAUUUAUCUACAUUAACUAGAACAGAAUGCUUACAAAGUUUACGUUAAUGUUAUAUAUUAUGUAUAAAUAAAUAUAUU	5.35
CAAAUCUGUGUUGGGGUUCCAGUGCAACUGAGAAGGAAAACAAUCCAGCUAUUGAAAGCAACAACCUAAUGGGUCCAUUUGGUCCCCCUGGGUCAUUUUAACAAGGGUGA	0.251
UAGACUCAAGAUCAAAACAGCAUACCUGCUAAGCUAAGAUAGAUGGUGUUGAUUCCACUGGGUUUUGAUCAAUACAAUAACAAACCUUUUUCCUUUGACAUACUCUGAAU	0.447
UCUGUACCCUGAUCUGGCAUAUAGCUUCAAAACUGCAGUGGCGAGUGUCCAUCUCUUAGUUAGCUACCUUAACUGUCCACCCUUACUACCUGUGGGAUCGUUGCCUGGUU	0.413
UUAUGGUCCCCAUACAGUGGUAUUUAACUUUUAAAGCAACUUUUAAGAAAACUCGACUUGUUUUUUGUUCAUUUUAAGUGUGUGGUACUAAAAAGACAUGUUAGACUUUU	0.362
AAUAAAAUUUACUUCUGAUGUUUUAAUUAAAAUGUUUGCCACAUUAACUUUUCUGAUGCCUUAAAAGUGAACUUCUUUAAAGAACCUUUGUGCUAUUUUAUCACAGGCUU	0.427
CUCUUUCUUUAACCAUUGUAUAUUUUCUUCCAUUCUUGUCAUUGGUCAAUAGGGGAGGGUAGAUUAGCUGCUCCAGAAUUCAAUAAAGUGUAAUAUUUCUAACGGUGACU	0.532

Some of these lines once more (sample 4):
Oligonucleotide	RBNS enrichment (R)
UGUGUAGCUCUAAGAACAUGAAGUAGCUGGUUGCAAGAUGGACCAACUCACCAAGUGUCAGCCCAGGUAGUGAGAAACUUGCAGUAGACAUGGAGCUGGGCUCUUUUAAA	0.958
AUACCGGUUUAACUACUAGUGUGUUACUGCCUCAUUUAUCUACAUUAACUAGAACAGAAUGCUUACAAAGUUUACGUUAAUGUUAUAUAUUAUGUAUAAAUAAAUAUAUU	5.35
CAAAUCUGUGUUGGGGUUCCAGUGCAACUGAGAAGGAAAACAAUCCAGCUAUUGAAAGCAACAACCUAAUGGGUCCAUUUGGUCCCCCUGGGUCAUUUUAACAAGGGUGA	0.251
UAGACUCAAGAUCAAAACAGCAUACCUGCUAAGCUAAGAUAGAUGGUGUUGAUUCCACUGGGUUUUGAUCAAUACAAUAACAAACCUUUUUCCUUUGACAUACUCUGAAU	0.447
UCUGUACCCUGAUCUGGCAUAUAGCUUCAAAACUGCAGUGGCGAGUGUCCAUCUCUUAGUUAGCUACCUUAACUGUCCACCCUUACUACCUGUGGGAUCGUUGCCUGGUU	0.413
UUAUGGUCCCCAUACAGUGGUAUUUAACUUUUAAAGCAACUUUUAAGAAAACUCGACUUGUUUUUUGUUCAUUUUAAGUGUGUGGUACUAAAAAGACAUGUUAGACUUUU	0.362
AAUAAAAUUUACUUCUGAUGUUUUAAUUAAAAUGUUUGCCACAUUAACUUUUCUGAUGCCUUAAAAGUGAACUUCUUUAAAGAACCUUUGUGCUAUUUUAUCACAGGCUU	0.427
CUCUUUCUUUAACCAUUGUAUAUUUUCUUCCAUUCUUGUCAUUGGUCAAUAGGGGAGGGUAGAUUAGCUGCUCCAGAAUUCAAUAAAGUGUAAUAUUUCUAACGGUGACU	0.532
